Published values of several laboratories.
Parts stem from different laboratories: compare values within a part only. Values joined by “and” are separate records of one study, mostly repeats; a detail may differ.
Chain of UniProt P15056 (whole entry, unmodified, looked up): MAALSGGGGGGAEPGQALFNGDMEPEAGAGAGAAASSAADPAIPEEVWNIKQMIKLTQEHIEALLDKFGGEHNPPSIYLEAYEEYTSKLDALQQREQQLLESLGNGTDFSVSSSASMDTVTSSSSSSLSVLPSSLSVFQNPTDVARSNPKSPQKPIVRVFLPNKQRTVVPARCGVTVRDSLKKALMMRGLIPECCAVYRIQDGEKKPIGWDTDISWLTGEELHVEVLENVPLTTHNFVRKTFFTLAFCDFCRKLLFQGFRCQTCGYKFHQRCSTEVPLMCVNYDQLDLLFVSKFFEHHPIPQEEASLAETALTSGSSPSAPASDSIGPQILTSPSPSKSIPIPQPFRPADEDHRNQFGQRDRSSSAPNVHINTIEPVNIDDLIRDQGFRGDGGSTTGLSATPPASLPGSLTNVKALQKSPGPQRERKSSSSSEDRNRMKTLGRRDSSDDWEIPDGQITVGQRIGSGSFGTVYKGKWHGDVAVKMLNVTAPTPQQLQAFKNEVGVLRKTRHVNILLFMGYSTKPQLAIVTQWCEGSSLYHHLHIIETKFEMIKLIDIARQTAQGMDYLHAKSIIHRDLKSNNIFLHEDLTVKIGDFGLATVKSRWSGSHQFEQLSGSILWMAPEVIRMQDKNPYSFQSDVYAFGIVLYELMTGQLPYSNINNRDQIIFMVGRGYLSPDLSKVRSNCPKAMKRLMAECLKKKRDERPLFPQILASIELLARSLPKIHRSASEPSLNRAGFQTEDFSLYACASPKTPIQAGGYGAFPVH
Chain of UniProt O75716 (whole entry, looked up): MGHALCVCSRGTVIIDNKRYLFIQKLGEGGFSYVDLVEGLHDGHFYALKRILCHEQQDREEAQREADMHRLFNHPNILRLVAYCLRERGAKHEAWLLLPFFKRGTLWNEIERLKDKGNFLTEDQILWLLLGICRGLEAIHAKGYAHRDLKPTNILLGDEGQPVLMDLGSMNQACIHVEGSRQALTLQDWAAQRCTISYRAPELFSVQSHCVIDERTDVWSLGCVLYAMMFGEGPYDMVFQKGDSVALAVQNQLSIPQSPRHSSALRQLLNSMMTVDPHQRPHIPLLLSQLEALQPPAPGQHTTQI
Chain of UniProt Q9UPE1 (whole entry, looked up): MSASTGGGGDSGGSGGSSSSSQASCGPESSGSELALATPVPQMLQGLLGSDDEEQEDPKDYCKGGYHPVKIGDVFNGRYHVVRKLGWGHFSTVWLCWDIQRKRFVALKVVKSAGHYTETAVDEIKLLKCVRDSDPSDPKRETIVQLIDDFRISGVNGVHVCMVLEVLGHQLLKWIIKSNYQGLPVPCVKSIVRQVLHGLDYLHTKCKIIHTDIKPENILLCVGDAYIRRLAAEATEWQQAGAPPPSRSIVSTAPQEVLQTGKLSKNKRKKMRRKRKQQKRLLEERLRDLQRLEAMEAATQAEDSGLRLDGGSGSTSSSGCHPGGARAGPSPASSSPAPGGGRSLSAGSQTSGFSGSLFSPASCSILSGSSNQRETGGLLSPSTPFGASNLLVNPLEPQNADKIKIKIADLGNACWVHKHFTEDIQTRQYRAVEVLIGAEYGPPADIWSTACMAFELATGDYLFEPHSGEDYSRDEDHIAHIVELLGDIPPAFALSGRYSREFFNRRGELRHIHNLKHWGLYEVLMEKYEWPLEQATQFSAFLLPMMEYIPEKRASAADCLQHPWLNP
Chain of UniProt Q07912 (whole entry, looked up): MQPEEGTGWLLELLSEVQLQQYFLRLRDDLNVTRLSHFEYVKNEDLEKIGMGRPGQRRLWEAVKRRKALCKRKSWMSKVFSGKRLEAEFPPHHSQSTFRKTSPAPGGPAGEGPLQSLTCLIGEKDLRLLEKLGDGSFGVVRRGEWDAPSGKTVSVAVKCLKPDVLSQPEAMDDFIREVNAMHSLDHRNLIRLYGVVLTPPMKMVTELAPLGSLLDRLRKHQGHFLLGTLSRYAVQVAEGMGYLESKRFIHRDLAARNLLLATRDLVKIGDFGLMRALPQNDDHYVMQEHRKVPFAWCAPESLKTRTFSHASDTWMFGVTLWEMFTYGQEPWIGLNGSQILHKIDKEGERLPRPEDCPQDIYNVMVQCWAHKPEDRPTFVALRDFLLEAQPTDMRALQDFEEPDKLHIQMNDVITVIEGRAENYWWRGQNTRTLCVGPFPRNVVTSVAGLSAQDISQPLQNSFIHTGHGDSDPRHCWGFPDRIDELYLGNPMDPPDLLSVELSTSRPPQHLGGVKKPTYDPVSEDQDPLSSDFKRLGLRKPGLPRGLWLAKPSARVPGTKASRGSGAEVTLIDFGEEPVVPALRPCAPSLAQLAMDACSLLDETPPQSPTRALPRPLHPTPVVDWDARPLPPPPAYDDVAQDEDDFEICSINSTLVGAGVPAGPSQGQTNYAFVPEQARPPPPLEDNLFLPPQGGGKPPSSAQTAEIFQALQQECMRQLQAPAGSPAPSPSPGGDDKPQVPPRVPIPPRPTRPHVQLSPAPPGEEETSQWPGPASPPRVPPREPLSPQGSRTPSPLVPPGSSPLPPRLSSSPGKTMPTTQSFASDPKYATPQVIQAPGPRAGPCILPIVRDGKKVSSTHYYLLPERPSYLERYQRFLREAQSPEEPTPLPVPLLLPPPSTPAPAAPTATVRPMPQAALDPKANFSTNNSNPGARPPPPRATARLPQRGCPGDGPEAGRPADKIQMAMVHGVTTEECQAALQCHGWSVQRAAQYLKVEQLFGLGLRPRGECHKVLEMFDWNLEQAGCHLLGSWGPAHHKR
Chain of UniProt Q13546 (whole entry, looked up): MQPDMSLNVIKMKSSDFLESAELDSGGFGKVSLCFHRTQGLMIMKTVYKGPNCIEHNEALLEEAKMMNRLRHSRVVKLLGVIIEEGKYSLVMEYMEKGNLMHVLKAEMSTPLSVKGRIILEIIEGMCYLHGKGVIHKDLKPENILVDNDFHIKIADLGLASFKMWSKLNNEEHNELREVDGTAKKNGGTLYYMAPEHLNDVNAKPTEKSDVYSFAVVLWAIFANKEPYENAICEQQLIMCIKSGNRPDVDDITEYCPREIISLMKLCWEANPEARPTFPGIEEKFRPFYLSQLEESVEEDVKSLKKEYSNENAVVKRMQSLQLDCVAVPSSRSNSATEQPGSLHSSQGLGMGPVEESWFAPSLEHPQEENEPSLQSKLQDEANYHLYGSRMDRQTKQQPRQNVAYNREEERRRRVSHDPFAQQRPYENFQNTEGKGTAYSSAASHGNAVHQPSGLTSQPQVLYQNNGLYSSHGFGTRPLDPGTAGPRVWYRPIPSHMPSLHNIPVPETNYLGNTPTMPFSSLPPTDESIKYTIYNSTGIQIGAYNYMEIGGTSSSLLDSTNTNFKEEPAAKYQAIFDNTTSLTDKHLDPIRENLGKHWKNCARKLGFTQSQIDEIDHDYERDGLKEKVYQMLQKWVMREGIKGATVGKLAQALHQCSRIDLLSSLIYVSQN
Chain of UniProt Q9NYY3 (whole entry, looked up): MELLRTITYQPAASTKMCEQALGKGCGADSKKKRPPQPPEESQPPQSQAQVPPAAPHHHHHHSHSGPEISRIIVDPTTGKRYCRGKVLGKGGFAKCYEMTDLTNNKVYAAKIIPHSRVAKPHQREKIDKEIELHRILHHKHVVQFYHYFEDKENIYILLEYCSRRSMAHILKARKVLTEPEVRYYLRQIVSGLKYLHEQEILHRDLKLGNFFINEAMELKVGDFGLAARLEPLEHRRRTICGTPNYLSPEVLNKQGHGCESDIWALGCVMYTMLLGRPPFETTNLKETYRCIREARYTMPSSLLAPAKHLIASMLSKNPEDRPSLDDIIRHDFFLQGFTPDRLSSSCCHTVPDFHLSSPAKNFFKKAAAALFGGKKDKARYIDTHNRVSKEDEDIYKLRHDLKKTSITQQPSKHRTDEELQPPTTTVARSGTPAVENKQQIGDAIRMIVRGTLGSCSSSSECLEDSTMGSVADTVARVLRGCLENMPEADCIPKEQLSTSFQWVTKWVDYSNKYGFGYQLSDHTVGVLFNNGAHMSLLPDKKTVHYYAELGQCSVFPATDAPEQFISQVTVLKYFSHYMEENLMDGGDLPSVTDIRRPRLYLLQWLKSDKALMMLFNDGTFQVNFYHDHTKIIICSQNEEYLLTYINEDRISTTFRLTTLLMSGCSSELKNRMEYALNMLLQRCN

Set 1 — relative to: DMSO
Structure (SMILES): Cc1cc2c(C(N)=O)c(N)n(-c3c(C)ccc(O)c3C)c2nc1C
For NCI-H446; Vi-Cell counting; 1.52 nM, 5 days: cell growth read 103% and 122%.
The cell growth was 97.7% and 83.7% (NCI-H446; Vi-Cell counting; 124 nM, 5 days).
NCI-H69; MTT; 41.1 nM, 5 d — cell growth: 107% and 91.4%.
It gave 101% and 99.2% for cell growth (NCI-H1048; MTT; 13.7 nM, 5 d).
The cell growth was 101% and 104% (NCI-H446; Vi-Cell counting; 511 pM, 5 days).
It gave 80.2% and 78.2% for cell growth (NCI-H1048; MTT; 124 nM, 5 d).
NCI-H69; MTT; 3.33 µM, 5 d — cell growth: 39.5% and 34.9%.
For NCI-H69; MTT; 4.57 nM, 5 d: cell growth read 104% and 114%.

Set 2 — method: logD(dd/w) and ALogP; notes: JT method
`CC(C)C[C@@H]1NC(=O)[C@@H](C)NC(=O)[C@H](CCC(=O)N2CCCC2)NC(=O)[C@@H](C(C)C)NC(=O)[C@H](C(C)C)NC(=O)[C@H](CC(C)C)NC(=O)[C@@H](CC(C)C)NC1=O` — result for “lipophilic permeability efficiency”: 2.55.
Under “lipophilic permeability efficiency”, `CC(C)C[C@@H]1NC(=O)[C@H](CC(C)C)NC(=O)[C@@H](CC(C)C)NC(=O)[C@H](C)NC(=O)[C@@H](Cc2cscn2)NC(=O)[C@H](C)NC(=O)[C@H](CCC(=O)N2CCCC2)NC1=O` is recorded as 1.8.
For `CC(C)C[C@@H]1NC(=O)[C@H](C)NC(=O)[C@@H](CC(C)C)NC(=O)[C@H](C)NC(=O)[C@@H](CCC(=O)N2CCCC2)NC(=O)[C@H](CC(C)C)NC(=O)[C@@H](CC(C)C)NC1=O`, “lipophilic permeability efficiency” read 2.29.
`CC(C)C[C@@H]1NC(=O)[C@H](C(C)C)NC(=O)[C@@H](CC(C)C)NC(=O)[C@@H](CC(C)C)NC(=O)[C@@H](CCC(=O)N2CCCC2)NC(=O)[C@H](CC(C)C)NC(=O)[C@@H](CC(C)C)NC1=O` — result for “lipophilic permeability efficiency”: 2.22.
Under “lipophilic permeability efficiency”, `CC(C)C[C@@H]1NC(=O)[C@H](CC(C)C)NC(=O)[C@@H](C(C)C)NC(=O)[C@H](CC(C)C)NC(=O)[C@@H](Cc2cscn2)NC(=O)[C@H](CCC(=O)N2CCCC2)NC(=O)[C@H](C)NC1=O` is recorded as 1.36.
Under “lipophilic permeability efficiency”, `CC(C)C[C@@H]1NC(=O)[C@H](C)NC(=O)[C@@H](CC(C)C)NC(=O)[C@H](C)NC(=O)[C@H](CC(C)C)NC(=O)[C@H](CC(C)C)NC(=O)[C@H](C)NC1=O` is recorded as 2.33.
For `CC(C)C[C@@H]1NC(=O)[C@H](Cc2cscn2)NC(=O)[C@H](CCC(=O)N2CCCC2)NC(=O)[C@H](CCC(=O)N2CCCC2)NC(=O)[C@@H](Cc2cscn2)NC(=O)[C@H](CC(C)C)NC(=O)[C@@H](CC(C)C)NC1=O`, “lipophilic permeability efficiency” read 1.5.
`CC(C)C[C@@H]1NC(=O)[C@H](CCC(=O)N2CCCC2)NC(=O)[C@H](CC(C)C)NC(=O)[C@@H](Cc2cscn2)NC(=O)[C@H](CC(C)C)NC(=O)[C@@H](CC(C)C)NC(=O)[C@H](CC(C)C)NC1=O`: “lipophilic permeability efficiency” 1.89.
`CC(C)C[C@@H]1NC(=O)[C@H](CC(C)C)NC(=O)[C@@H](CC(C)C)NC(=O)[C@H](C(C)C)NC(=O)[C@@H](Cc2cscn2)NC(=O)[C@H](Cc2cscn2)NC(=O)[C@H](CCC(=O)N2CCCC2)NC1=O`: “lipophilic permeability efficiency” 2.21.

Set 3 — method: competition with immobilised ligand; concentration: 1 µM
SMILES: C[C@@H](c1cccc(C#N)c1)n1cc(Cl)cc(C(N)=O)c1=N
The remaining binding was 100% (CAMK2D (Homo sapiens, UniProt Q13557); cell-free assay).
It gave 85% for remaining binding (Tyrosine-protein kinase ABL1, non-phosphorylated (ABL1, Homo sapiens, UniProt P00519, F317L); cell-free assay).
It gave 85% for remaining binding (STK16 (Homo sapiens, UniProt O75716); cell-free assay).
It gave 96% for remaining binding (BRAF (Homo sapiens, UniProt P15056); cell-free assay).
It gave 96% for remaining binding (PRKAA2 (Homo sapiens, UniProt P54646); cell-free assay).
The remaining binding was 100% (TSSK3 (Homo sapiens, UniProt Q96PN8); cell-free assay).
CDK11B (Homo sapiens, UniProt P21127); cell-free assay — remaining binding: 86%.
It gave 95% for remaining binding (TNK2 (Homo sapiens, UniProt Q07912); cell-free assay).
It gave 95% for remaining binding (BRAF (Homo sapiens, UniProt P15056, V600E); cell-free assay).
PLK2 (Homo sapiens, UniProt Q9NYY3); cell-free assay — remaining binding: 97%.
The remaining binding was 100% (RIPK1 (Homo sapiens, UniProt Q13546); cell-free assay).
For BMPR1A (Homo sapiens, UniProt P36894); binding: remaining binding read 100%.
For SRPK3 (Homo sapiens, UniProt Q9UPE1); cell-free assay: remaining binding read 100%.

Set 4 — effect on: enzyme activity; action: inhibitor; concentration: 0.5 µM; relative to: control
Target: Ephrin type-B receptor 3 (EPHB3, Homo sapiens, UniProt P54753)
Chain of UniProt P54753 (whole entry, looked up): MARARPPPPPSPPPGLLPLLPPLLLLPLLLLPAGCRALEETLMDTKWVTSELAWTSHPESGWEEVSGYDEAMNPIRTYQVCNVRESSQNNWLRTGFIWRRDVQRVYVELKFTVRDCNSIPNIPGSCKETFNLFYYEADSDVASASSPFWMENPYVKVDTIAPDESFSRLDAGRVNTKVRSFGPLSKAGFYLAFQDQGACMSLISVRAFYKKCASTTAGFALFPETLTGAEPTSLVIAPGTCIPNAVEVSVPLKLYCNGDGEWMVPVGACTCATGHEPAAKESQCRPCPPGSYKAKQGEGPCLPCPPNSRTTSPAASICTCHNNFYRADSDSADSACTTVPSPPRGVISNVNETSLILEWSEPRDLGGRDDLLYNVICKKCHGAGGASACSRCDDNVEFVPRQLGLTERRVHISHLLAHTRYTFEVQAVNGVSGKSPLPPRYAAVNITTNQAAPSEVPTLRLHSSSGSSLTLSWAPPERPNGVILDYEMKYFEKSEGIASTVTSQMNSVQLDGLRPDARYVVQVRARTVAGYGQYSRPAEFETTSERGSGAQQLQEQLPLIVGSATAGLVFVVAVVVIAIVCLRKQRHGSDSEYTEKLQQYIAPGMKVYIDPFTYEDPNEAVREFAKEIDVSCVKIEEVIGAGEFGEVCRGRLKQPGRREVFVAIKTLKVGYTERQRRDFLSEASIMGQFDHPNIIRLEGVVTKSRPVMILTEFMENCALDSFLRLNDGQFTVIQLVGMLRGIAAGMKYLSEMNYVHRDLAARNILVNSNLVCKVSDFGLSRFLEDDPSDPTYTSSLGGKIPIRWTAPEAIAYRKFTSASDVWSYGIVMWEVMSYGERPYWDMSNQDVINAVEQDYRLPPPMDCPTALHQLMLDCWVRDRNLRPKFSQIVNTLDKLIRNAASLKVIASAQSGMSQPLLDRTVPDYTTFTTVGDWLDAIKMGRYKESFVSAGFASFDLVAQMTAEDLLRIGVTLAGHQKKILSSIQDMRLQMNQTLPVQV
With `Cc1cc(Nc2nc(-c3ccccc3)nc3ccccc23)n[nH]1` the remaining activity was 86.5%.
With `Cc1cncc2cccc(S(=O)(=O)N3CCCN(C(=O)CN)C[C@@H]3C)c12` the remaining activity was 99.6%.
With `COc1ccc(S(=O)(=O)N(CCO)c2ccccc2CN(C)CC=Cc2ccc(Cl)cc2)cc1` the remaining activity was 92.8%.
The remaining activity of `NC(=O)c1ccc(N(C(N)=O)c2c(F)cccc2F)nc1-c1ccc(F)cc1F` is reported as 65.8%.
The remaining activity of `Nc1nccc(-c2c(-c3ccc(F)cc3)ncn2C2CCNCC2)n1` is reported as 101%.
With `O=S(=O)(NCCNC/C=C/c1ccc(Br)cc1)c1cccc2cnccc12` the remaining activity was 92.5%.
For `CC(=O)c1ccc(N2CCOCC2)cc1O`, the remaining activity was 92.3%.
